Experimental data pooled from the literature.
Protocols differ between the studies behind these lines. ± gives the spread as reported.

SMILES	tested on	assay	test system	setting	quantity	value
CC(C)N1CCC(NC2CCN(c3cccc(-c4cc5cc(F)ccc5[nH]4)c3)CC2)CC1	NCI/ADR-RES	–	–	–	GI50	1690 nM
C[C@]12CC[C@H](O)CC1=CC[C@@H]1[C@@H]2CC[C@]2(C)C(n3cnc4ccccc43)=CC[C@@H]12	C4-2B	cell growth, MTT	–	–	GI50	210 ± 120 nM
N#C[Se]Cc1cc(=O)oc2cc(O)ccc12	WiDr, multidrug-resistant	sulforhodamine B	–	–	GI50	31000 ± 7000 nM
CN1CCN(C2(CNC3CCN(c4cccc(-c5cc6cc(F)ccc6[nH]5)c4)CC3)CCC2)CC1	OVCAR-4	–	–	–	GI50	1870 nM
Cc1c(Cl)c(=O)oc2cc(OCCCC[Se]C#N)ccc12	WiDr, multidrug-resistant	sulforhodamine B	–	–	GI50	11000 ± 2000 nM
CN[C@@H]1C[C@H]2O[C@@](C)([C@@H]1OC)n1c3ccccc3c3c4c(c5c6ccccc6n2c5c31)C(=O)NC4	U2OS overexpressing DDR1 G707A	cell growth	–	–	GI50	9 nM
COc1cc(CCC[P+](c2ccccc2)(c2ccccc2)c2ccccc2)c(OC)c2c1OCO2.[I-]	TK-10	SRB	–	–	GI50	-5.39 log M
Nc1ncc(-c2nc(N3CCOCC3)nc(N3CCOCC3)n2)c(C(F)F)n1	COLO 205	–	–	72 h	GI50	310 nM
Cc1nc2ccc(CN(C)c3ccc(C(=O)N[C@@H](CCC(=O)O)C(=O)O)s3)cc2c(=O)[nH]1	human coronavirus OC43	virus-induced cell killing	MRC-5	screen	maximum inhibition	17.3%
COc1c(CCC[P+](c2ccccc2)(c2ccccc2)c2ccccc2)cc2c(c1OC)OCO2.[I-]	T47D	SRB	–	–	GI50	-6.38 log M
C[C@]12CC[C@H](n3ccnc3)CC1=CC[C@@H]1[C@@H]2CC[C@]2(C)C(n3cnc4ccccc43)=CC[C@@H]12	C4-2B	cell growth, MTT	–	–	GI50	300 ± 160 nM
CS(=O)(=O)c1cccc(CNc2nc(Nc3ccc4c(c3)CCC(=O)N4)ncc2C(F)(F)F)c1	human coronavirus OC43	virus-induced cell killing	MRC-5	screen	maximum inhibition	1.82%

Excerpt of the above:
SMILES	tested on	assay	test system	setting	quantity	value
CN1CCN(C2(CNC3CCN(c4cccc(-c5cc6cc(F)ccc6[nH]5)c4)CC3)CCC2)CC1	OVCAR-4	–	–	–	GI50	1870 nM
